Published values collected from several papers.
Every numbered part comes from another study and shows a few of its results, in no order.

Series 1 — technique: aptamer microarray, sandwich; form: DNA with 2'F-ANA; matrix: in vitro; concentration: 200 nM; added: Cy3 exosite-II aptamer, 400 nM; direction: higher = stronger binding; endpoint: mean fluorescence intensity; oligonucleotide: GGTTGGTGTGGTTGG
Target: Prothrombin, mature alpha-thrombin (F2, Homo sapiens, UniProt P00734)
Setting: whole 15-mer aptamer, many near background
2'F-ANA at 1 2 3 8 13: 269 a.u.
2'F-ANA at 1 5 6 7 10 11: 47.3 a.u.
2'F-ANA at 3 4 6 12 13: 768 a.u.
2'F-ANA at 4 5 6 8 10 11 12 13 14 15: 59.3 a.u.
2'F-ANA at 3 7 9 10 12 13 15: 568 a.u.
2'F-ANA at 1 2 3 4 6 8 9 10 13 15: 53.9 a.u.

Series 2 — technique: universal PBM; form: double-stranded DNA, one strand shown; matrix: in vitro; concentration: not given; direction: higher = stronger binding; endpoint: E-score
Target: Sal-like protein 4, full length isoform B (SALL4, Homo sapiens, UniProt Q9UJQ4-2, residues 1-616)
Setting: 8-mer, flanks averaged, mean of replicates
Residues (chain): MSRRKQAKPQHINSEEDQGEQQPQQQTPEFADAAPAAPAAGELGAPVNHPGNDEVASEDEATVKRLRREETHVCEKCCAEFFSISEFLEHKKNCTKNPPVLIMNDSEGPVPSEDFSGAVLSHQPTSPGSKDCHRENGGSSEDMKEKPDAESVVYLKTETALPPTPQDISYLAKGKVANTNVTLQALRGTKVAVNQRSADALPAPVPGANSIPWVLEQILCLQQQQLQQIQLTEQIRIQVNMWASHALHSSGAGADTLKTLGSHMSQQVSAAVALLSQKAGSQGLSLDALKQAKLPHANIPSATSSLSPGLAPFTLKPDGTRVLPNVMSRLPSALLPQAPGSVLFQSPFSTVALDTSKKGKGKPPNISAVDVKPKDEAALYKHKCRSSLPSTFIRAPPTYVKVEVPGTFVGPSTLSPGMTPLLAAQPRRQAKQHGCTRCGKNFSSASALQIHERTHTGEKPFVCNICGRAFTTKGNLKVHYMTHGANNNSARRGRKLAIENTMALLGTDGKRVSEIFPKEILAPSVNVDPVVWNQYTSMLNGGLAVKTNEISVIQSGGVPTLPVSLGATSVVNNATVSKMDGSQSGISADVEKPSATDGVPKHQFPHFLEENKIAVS
CGGTGCAC: -0.319
GCTGGCCA: -0.263
AAGGTTAC: -0.0233
CATGTTAG: 0.117
ACAAACCC: 0.0641

Series 3 — technique: competition protein-binding microarray; form: double-stranded DNA, one strand shown; matrix: in vitro; concentration: 2 µM; added: Cbf1 competitor, 0.05 µM; direction: higher = stronger binding; endpoint: fluorescence intensity; all sequences stand within: … GTCTTGATTCGCTTGACGCTGCTG
Target: Phosphate system positive regulatory protein PHO4, full length, GST-tagged (PHO4, Saccharomyces cerevisiae, UniProt P07270, residues 1-312)
Setting: whole 60-bp probe, lowest competitor level
Construct (chain): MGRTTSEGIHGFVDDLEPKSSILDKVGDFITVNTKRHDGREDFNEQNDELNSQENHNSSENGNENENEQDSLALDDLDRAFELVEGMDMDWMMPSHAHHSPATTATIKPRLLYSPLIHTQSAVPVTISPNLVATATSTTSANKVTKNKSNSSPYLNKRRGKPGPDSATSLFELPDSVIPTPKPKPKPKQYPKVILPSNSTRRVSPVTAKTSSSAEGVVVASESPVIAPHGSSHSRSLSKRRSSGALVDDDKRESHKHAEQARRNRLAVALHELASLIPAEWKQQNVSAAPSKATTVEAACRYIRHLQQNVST
GAAGGAGAGACTGTTCACATGCCTGAGGAAGATGAC: 7590 a.u.
CATCGCACCCTGACATTCGTGACAAAATAAGAACAA: 4850 a.u.
CCCGTTAGAATCCATCACGTAACCTGGTGGCGCTTT: 4160 a.u.
CTTTCCCGATCTTTTCACGTGCCTTTAGCACATTTG: 14500 a.u.
GGTCTCCTCGGTGAAAGCGTGATGGGATAGCCGTTA: 6120 a.u.
CGGGGTTAAGTTTAACACGTGTTTTGCTTGCAGCAG: 15100 a.u.

Mixed results
PhoQ, residues 284 288 289 292 302 303 SLKLQV  fold induction (PhoP, residues 12 14 15 18 19 NFCKL (Escherichia coli, UniProt P23836); Sort-seq, measured: YFP reporter; E. coli; PhoQ-PhoP variant library, added: 10 µM Mg2+; reference: high Mg2+ state, higher = stronger signaling): 8.41

For quick reference, copied from above (series 3):
CATCGCACCCTGACATTCGTGACAAAATAAGAACAA: 4850 a.u.
CCCGTTAGAATCCATCACGTAACCTGGTGGCGCTTT: 4160 a.u.
GAAGGAGAGACTGTTCACATGCCTGAGGAAGATGAC: 7590 a.u.
